Published values pooled from the literature.
Lines come from different studies, so protocols differ. ± gives the spread as reported.

SMILES | cell line | test | system | conditions | scale | endpoint | result
Cc1ccc(NS(=O)(=O)c2cccc(/C=C/C(=O)NO)c2)cc1 | MOPC-315 | cell growth | – | 24 h | baseline: belinostat | relative potency | 1.99
COc1cc2c(C=C3C(=O)Nc4ccccc43)c[nH]c2cc1C | leukaemia subpanel of NCI-60 | – | – | 48 h | – | TGI | 2.88 µM
[Ru+2].c1ccc(-c2cccc(-c3ccccn3)n2)nc1.c1ccc2nc(-c3nc4ccccc4s3)ccc2c1.c1cnccn1 | HL-60 | – | – | – | baseline: dark IC50 over light IC50 | phototoxicity index | > 3.6
COc1cc(CNC(=O)C[C@H](C)CCC=C(C)C)ccc1OCc1cn(-c2ccc(Cl)c(Cl)c2)nn1 | SR leukaemia cells | SRB | – | 10 µM, 48 h | – | growth percent | 27.1%
Cc1cc(-c2ccccc2)c2ccc3c(-c4ccccc4)cc(C)nc3c2n1.[Cl-].[Cl-].[Ru+2].c1ccc(-c2ccccn2)nc1.c1ccc(-c2ccccn2)nc1 | B16-F10 | annexin V/PI | – | 10 µM, 24 h, dark | – | early apoptotic cells | ~26%
COc1cc(CNC(=O)C[C@H](C)CCC=C(C)C)ccc1OCc1cn(-c2ccccc2Cl)nn1 | OVCAR-4 ovarian cancer cells | SRB | – | 10 µM, 48 h | – | growth percent | 33.3%
Cc1ccc(CNS(=O)(=O)c2cccc(/C=C/C(=O)NO)c2)cc1 | MOPC-315 | cell growth | – | 24 h | baseline: belinostat | relative potency | 1.91
COc1cc(CNC(=O)C[C@H](C)CCC=C(C)C)ccc1OCc1cn(-c2ccc(C#N)cc2)nn1 | UACC-257 melanoma cells | SRB | – | 10 µM, 48 h | – | growth percent | 68.7%
CC(=O)Nc1ccc(OC(=O)CCC(=O)[O][Pt-2]23([O]C(=O)CCC(=O)Oc4ccc(NC(C)=O)cc4)([NH2+][C@@H]4CCCC[C@H]4[NH2+]2)[O]C(=O)C(=O)[O]3)cc1 | 4T1 | – | supernatant | concentration not given, 24 h | baseline: untreated | IFN-alpha level | 2.1 fold
C=C1[C@H](O)CC(=C/C=C2\CCC[C@]3(C)[C@@H]([C@H](C)CCCC)CC[C@@H]23)C[C@H]1O | HL-60 | cell differentiation, NBT reduction | – | – | baseline: compound over 1α,25-dihydroxyvitamin D3 | EC50 ratio | 50
Cc1cccc(O[C@H]2CCC[C@@H](C(C)CNCc3ccncc3)C2)c1 (relative stereo) | MC65 Tet-Off cells | cell viability | – | concentration not given, added: rotenone 32 nM pretreatment 30 min | – | protection against Aβ toxicity | decreased
COc1ccc(CC(C)=C(c2ccc(Cl)cc2)c2ccc(OCCN3CCCC3)cc2)cc1 | NCI-60 tumour cell lines | – | – | 10 µM, mean over cell lines | – | growth inhibition | 24.1%
COc1cc(N2CCN(C(=O)C3CCCN3)CC2)ccc1Nc1ncc(Cl)c(Nc2ccccc2P(C)(C)=O)n1 (centres unmarked) | Ba/F3 EML4-ALK | flow cytometry | – | 1 µM | – | onset of apoptosis | 3 h
O=[N+]([O-])c1ccc(NC2=N[N+](=Cc3cccs3)[Pt-]([Cl])([Cl])[S]2)cc1 | HEL human lung fibroblasts | altered cell morphology, microscopy | – | confluent cultures | – | cytotoxic concentration | ≥ 100 µM
COC1C=CC=C(C)C(=O)NC2=CC(=O)C(NCCN(C)C)=C(CC(C)CC(OC)C(O)C(C)C=C(C)C1OC(N)=O)C2=O (centres unmarked) | Rh30 | western blot, item: PAX3-FOXO1 | – | concentration not given, 24 h | – | protein level | decreased
COc1cc(CNC(=O)C[C@H](C)CCC=C(C)C)ccc1OCc1cn(-c2ccc(F)cc2)nn1 | SF-295 CNS cancer cells | SRB | – | 10 µM, 48 h | – | growth percent | 64.4%
O=Cc1c(O)ccc2ccccc12 | HUVEC | RNA sequencing, item: CYP26B1 | – | 75 µM, 24 h | baseline: DMSO | log2 fold change | -2.88
Cc1cc(/N=N/c2ccc(/N=N/c3ccc(O)c(C(=O)O)c3)cc2)c(N)cc1N | primary mouse articular chondrocytes | real-time PCR, item: Sox9 | – | 25 µM, micromass culture | – | mRNA level | increased
COc1cc(CNC(=O)C[C@H](C)CCC=C(C)C)ccc1OCc1cn(-c2ccccc2)nn1 | OVCAR-4 ovarian cancer cells | SRB | – | 10 µM, 48 h | – | growth percent | 95.3%
Cc1cc(O)c2c(C(=O)[O-])[n+]3n(c2c1)CCCC3 | HepG2, palmitic acid-induced insulin resistance | – | – | 10.0 µM, 24 h | – | glucose consumption | 8.47 ± 0.46 mM
FC(F)(F)c1ccnc(-c2cc(C(F)(F)F)ccn2)c1.FC(F)(F)c1ccnc(-c2cc(C(F)(F)F)ccn2)c1.[Cl-].[Cl-].[Ru+2].c1csc(-c2ccc(-c3ccc(-c4ccc(-c5nc6c7cccnc7c7ncccc7c6[nH]5)s4)s3)s2)c1 | SK-MEL-28 | – | – | normoxia, added: green light 523 nm | baseline: visible light | phototherapeutic index decrease | 10 fold
CCN(CC)CC(=O)N1CCN(c2nc(NCc3nc4cc(Cl)c(Cl)cc4[nH]3)c3ncn(CC)c3n2)CC1 | MDA-MB-231 | western blot | – | 50 nM, 2 h | – | cyclin K degradation | ~100%
CC(C)(C)C(=O)NNC(=O)/C=C\n1cnc(-c2cc(C(F)(F)F)cc(C(F)(F)F)c2)n1 | hippocampal neurons | – | – | 10 nM, added: glutamate and TNFα | baseline: control | mitochondrial speed and length | inhibited
CCC(=C(c1ccc(Cl)cc1)c1ccc(OCCN2CCCC2)cc1)c1ccccc1 | NCI-60 tumour cell lines | – | – | 10 µM, mean over cell lines | – | growth inhibition | 44%
CC1=CC(OC(=O)c2ccccc2)C2(COC(=O)c3ccccc3)CCC(=C(C)C)C2C(O)CC2(C)OC2CC1 (centres unmarked) | HepG2, palmitic acid-induced insulin resistance | – | – | 2.5 µM, 24 h | – | glucose consumption | 3.92 ± 0.61 mM
CC(=O)OC[C@H]1O[C@@H](Sc2sc(C(=O)c3ccc(Br)cc3)c(N)c2-c2nc3ccccc3s2)[C@H](OC(C)=O)[C@@H](OC(C)=O)[C@H]1OC(C)=O | U-251 | SRB | – | 10 µM, 48 h | baseline: untreated | growth | 96.2%
CC(C)=CCc1c(O)cc(CO)cc1O | HepG2, palmitic acid-induced insulin resistance | – | – | 5.0 µM, 24 h | – | glucose consumption | 4.24 ± 0.92 mM

SMILES | cell line | test | system | conditions | scale | endpoint | result
CC1=C2[O][Ru-]([Cl])[O+]=C2C=CN1CCCCCCCCCCCCN1C=CC2=[O+][Ru-]([Cl])[O]C2=C1C.Cc1ccc(C(C)C)cc1.Cc1ccc(C(C)C)cc1 | KYSE70-oxo oxoplatin-resistant | – | – | – | baseline: KYSE-70 parent | sensitivity relative to parent | > 10 fold
C=CC(=O)Nc1cc(Nc2nccc(-c3c(-c4cccc(OC)c4)n(C)c4ccccc34)n2)c(OC)cc1N(C)CCN(C)C | H1975 | Western blot, item: Bcl-2 | – | concentration not given, 24 h | – | protein level | decreased
CCN(CC)CCOc1ccc(C(=C(C)c2ccc(Cl)cc2)c2ccc(Cl)cc2)cc1 | NCI-60 tumour cell lines | – | – | 10 µM, mean over cell lines | – | growth inhibition | 34.1%
Nc1ncnc2c1c(-c1ccccc1)cn2[C@H]1C[C@H](O)[C@@H](CO)O1 | HEK | cytotoxicity | – | – | – | EC50 | > 200 µM
CC(=O)OC[C@H]1O[C@@H](Sc2nc3c4cnn(C(=O)CNc5ccc(C)cc5)c4ncn3n2)[C@H](OC(C)=O)[C@@H](OC(C)=O)[C@@H]1OC(C)=O | HCT cells | annexin V-FITC/PI flow cytometry | – | concentration not given | baseline: untreated control | apoptosis induction | 22 fold
CN(C)c1ccc(/C=C/C(=O)c2ccc(S(=O)(=O)N3CCCCCC3)cc2)cc1[N+](=O)[O-] | patient-derived glioblastoma cells | – | – | 1.2 to 10 µM | – | sphere formation | no effect
Cc1c(OCc2ccccc2)c(=O)ccn1CCCOC(=O)c1ccccc1Cl | PC-12 | cell growth, MTT | – | – | baseline: docetaxel over compound IC50 | potency ratio | ~16 fold
COc1cc(CNC(=O)C[C@H](C)CCC=C(C)C)ccc1OCc1cn(-c2cccc([N+](=O)[O-])c2)nn1 | UACC-257 melanoma cells | SRB | – | 10 µM, 48 h | – | growth percent | 92%
[Cl][Pd-2]1([Cl])[N+](=Cc2ccc[nH]2)Cc2cccc[n+]21 | MCF-12A | MTT | – | 100 µg/mL, 24 h | – | viability reduction | > 80%
CC(Cc1ccc(Cl)cc1)=C(c1ccc(Cl)cc1)c1ccc(OCCN2CCCCC2)cc1 | NCI-60 tumour cell lines | – | – | 10 µM, mean over cell lines | – | growth inhibition | 10.9%
COc1ccc(NC(=O)COc2ccc(/C=C/C(C)=N/O)cc2OC)cc1 | SH-SY5Y | flow cytometry | – | 20 µM, added: amyloid beta 10 µM | – | IL-1β expressing cells | 16.4%
COc1cc(CNC(=O)C[C@H](C)CCC=C(C)C)ccc1O | OVCAR-4 ovarian cancer cells | SRB | – | 10 µM, 48 h | – | growth percent | 78.7%
Nc1ncnc2c1c(-c1cccc(F)c1)cn2[C@@H]1O[C@H](CO)[C@@H](O)[C@H]1O | HEK | cytotoxicity | – | – | – | EC50 | > 200 µM
COCCNCC(=O)N(CCCCN)CC(=O)N(CC(=O)N(CC(=O)N(CCCCN)CC(=O)N[C@@H](CCCCN)C(=O)N[C@H](CCCCN)C(=O)N[C@@H](CCSC)C(=O)NCCCC[C@H](NC(=O)[C@H](CCSC)NC(=O)[C@@H](CCCCN)NC(=O)[C@H](CCCCN)NC(=O)CN(CCCCN)C(=O)CN(C(=O)CN(Cc1ccc2c(c1)OCO2)C(=O)CN(CCCCN)C(=O)CNCCOC)[C@H](C)c1ccccc1)C(N)=O)[C@H](C)c1ccccc1)Cc1ccc2c(c1)OCO2 | H358 | scratch | – | 10 to 30 µM, 48 h | – | cell migration | inhibited
CSC(=S)N/N=C(\C)c1ccc(S(=O)(=O)N2CCC(C)CC2)cc1 | HepG2 | flow cytometry | – | 3.31 µM, 72 h | – | cells in %S | 32.6%
Cc1nccc2c3ccccc3n(Cc3cccnc3)c12 | PC-12 | – | – | 200 µM, 48 h | – | viability inhibition | 34.3 ± 1.4%
Fc1ccc(Nc2nc(NC3CCCCC3)c3ccccc3n2)cc1F | HASM | scratch | – | 1 µM, added: isoprenaline 1 µM | – | isoprenaline inhibition of migration | increased
CC(=O)O[C@H]1CC[C@]2(C)[C@H]3C(=O)C=C4[C@@H]5C[C@@](C)(C(=O)OCc6ccccc6)CC[C@]5(C)CC[C@@]4(C)[C@]3(C)CC[C@H]2C1(C)C | HepG2 | MTT | – | 5 µM, 48 h | – | cell death | ~50%
CC[C@H](C)[C@H](NC(=O)[C@@H](NC(=O)[C@@H](N)C(C)C)C(C)C)C(=O)N[C@@H](C)C(N)=O | PC-12 | Aβ42-induced neurotoxicity, inhibitor, MTT | – | concentration not given, 6 h, 37 °C, peptide to Aβ42 1:1, added: Aβ42 2 µM | baseline: untreated cells | viability | 86.4%
COc1ccc(-c2cc(C(F)(F)F)nc(S(=O)(=O)CCCC(=O)Nc3ccc(F)cc3F)n2)cc1OC | rat INS-1 832/13 cells | – | – | 20 µM, no GLP-1, added: 15 mM glucose | baseline: DMSO | insulin secretion | increased
C(=C/c1ccccc1)/c1ccccc1 | HL-60 | cell proliferation, CellTiter-Glo | – | 24 h, lowest dose with significant inhibition | baseline: vehicle | lowest effective concentration | 2 µM
CCCC(CCC)C(=O)[O][Pt]([NH2])([NH2])([Cl])([Cl])[O]C(=O)C(Cl)Cl | HEK293 and LoVo | cytotoxicity, MTT | – | – | baseline: IC50 HEK293 over IC50 LoVo | selectivity index | 2.6
COc1cc(CNC(=O)C[C@H](C)CCC=C(C)C)ccc1OCc1cn(-c2ccccc2[N+](=O)[O-])nn1 | SF-295 CNS cancer cells | SRB | – | 10 µM, 48 h | – | growth percent | 60.5%
Cc1cc([C@H](C(=O)N2C[C@H](O)C[C@H]2C(=O)N[C@@H](CC(=O)N2CCC(N3CCC(C#Cc4ccc(C(=O)N[C@H]5C(C)(C)[C@H](Oc6ccc(C#N)c(Cl)c6)C5(C)C)cc4)CC3)CC2)c2ccc(-c3scnc3C)cc2)C(C)C)on1 | MDA-MB-453 and HCC1428 | Western blot, item: cleaved caspase-8, other caspases, PARP | – | 48 h | – | lowest effective concentration | 0.25 µM
CCC(=C(c1ccc(Cl)cc1)c1ccc(OCCN2CCCC2)cc1)c1ccc(Cl)cc1 | NCI-60 tumour cell lines | – | – | 10 µM, mean over cell lines | – | growth inhibition | 5.44%
CC(C)=C1CC[C@]2(COC(=O)c3ccccc3)[C@@H](OC(=O)c3ccccc3)/C=C(\C)CC[C@@H]3O[C@@]3(C)C[C@@H](OC(=O)c3cccnc3)[C@@H]12 | HepG2, palmitic acid-induced insulin resistance | – | – | 12.5 µM, 24 h | – | glucose consumption | 7.9 ± 0.52 mM
